Experimental data pooled from the literature.
Numbered parts are unrelated; each lists some results of a single study.

Block 1 — technique: RNA Bind-n-Seq; molecule type: RNA; sample: in vitro; concentration: not given; baseline: input RNA pool; direction: higher = stronger binding; quantity: bound/input enrichment
Target: RING finger protein unkempt homolog, zinc fingers 1-6, GST-SBP tag (UNK, Homo sapiens, UniProt Q9C0B0, residues 30-357)
Sequence of UniProt Q9C0B0 (30-357, looked up): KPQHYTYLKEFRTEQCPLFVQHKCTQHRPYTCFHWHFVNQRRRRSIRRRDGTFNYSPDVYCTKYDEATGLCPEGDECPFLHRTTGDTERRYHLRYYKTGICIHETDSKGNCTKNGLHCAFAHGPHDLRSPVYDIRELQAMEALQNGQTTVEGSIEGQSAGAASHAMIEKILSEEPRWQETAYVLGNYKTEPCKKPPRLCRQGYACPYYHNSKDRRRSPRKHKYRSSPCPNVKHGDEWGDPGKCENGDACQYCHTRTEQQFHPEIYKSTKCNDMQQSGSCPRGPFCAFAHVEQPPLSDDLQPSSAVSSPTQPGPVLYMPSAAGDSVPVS
Notes: RNA with constant flanks, human-mouse chimeric sites, ends assumed
Shared flanks, not repeated: GGGAGUUCUACAGUCCGACGAUC … CAACAGAGGAUUGAGCAUCA
UUUGUAUUUAUGCUAAGCACACGUGCUGGUGGUCUGGGCAUCAAUCUUGCAACUGCUGAUGUAGUAAUUUUAUAUGAUUCUGAUUGGAAUCCGCAAGUUGAUCUUCAGGCUAUGGACCGU: 1.75 ratio
CCAAUUGUGGAGCAGUACUUGAAGACAAAGAAAAAUUCUAAUAAUUUAAUCAUCAAGUACAUUAGCUGCCGCCUGCUGACAUUUGUGAUUAUACUGUUAGCGUGUAUCUACUUGAGCUAU: 0.275 ratio
UCUUAACUUAUUCAUUUAACUUAUUUUUAUAGCUAGAUAAAUAUUGUUAGUCUUAGACAAUAGCUCACAUUUUUUGAAAAGCAUGCUCUCCCUAUCCAUUUGUCUUAUAACAUGACCCAG: 12.5 ratio
AAUUUCCUGUCAUACUUUUUAGACAUUCACAUCAGACUUACAGAGCACCUGGCCACAUUCUAGGUUUGUGUUAUUUCUAAGCCUUUUAUAUGAUCAAAGAGUGAAAAUGCUUAACUAAUG: 0.268 ratio
AUGGAGAAGGAUUCUCUGCCCCGCUUUGUGCGCUCUGAAUUUUAUAAGGAGCUAAUCAAGUAGUCAUCUGGUCAGGCUAUGAAAUCAUGCCCUGUGAGUUGAGUUACAUAAUAACCCGCA: 0.245 ratio
AACUUCGUGCAUCGGUUUCCUUUUGUAGCUGUUUCAAUUGGCUUCCUUGUGAAUAAAAAGAUAGAAUUUGGAAUUGUGUACAGCUGUGUGGAAGAUAAGAUGUACACCGGCAGGAAAGGG: 3.22 ratio
UCUUAACUUAUUCAUUUAACUUAUUUUUAUAGCUAGAUAAAUAUUGUUAGUCUUAGUCAAUAGCUCACAUUUUUUGAGAAGCAUGCCCUCCCUGUCCAUUUGUCUUAUAACAUGACCCAG: 27.5 ratio
CAGCCUCAGAGCCCUGACUUCCUGGAUAUUACCAACCCUAAAGCGGUAUUAGAAAACGCAUUGAGAAACUUCGCCUGUCUGACGACUGGAGAUGUGAUUGCUAUCAACUACAAUGAGAAG: 0.349 ratio
ACCAUUUUCGCGGUUCAGGCUUUGUGUUGUAUUUACUUACGGUAUUAAAUUAUUAUUGCCCUUAGUUUAUAAUAAGGAUAAUUGCAUUUAAAGAGGUUACUGAAUGUUACUCUGAAACUU: 0.423 ratio
ACACAAUAUGAGACCAACAGCAUGGACUUCAAAGUUGGGGCAGAUGGGACAGUCUUCGCCACUAGGGAGUUGAAGAUCCCCUCCGAGCAGGUGGCGUUCACGGUGACUGCAUGGGACAGC: 0.262 ratio
UUCAAAGGCUGUGUUAUCUGUGUCAUUUCAUAAGUAACUCUGGGGGAGGGAAAUUCUGUUCUUUUGUUUAAUUUUCCCCCAAAUGAAGCCAAAGUGUGUGUUGAAGAAGGAAGAAUGAAU: 0.164 ratio

Block 2 — technique: protein-binding microarray; molecule type: double-stranded DNA, one strand shown; sample: in vitro; concentration: not given; direction: higher = stronger binding; quantity: E-score
Target: Max-binding protein MNT, bHLH-zipper, MAX partner unstated (MNT, Homo sapiens, UniProt Q99583, residues 220-300)
Notes: k-mer, scored over probes, only values ≥0.25
Residues (chain): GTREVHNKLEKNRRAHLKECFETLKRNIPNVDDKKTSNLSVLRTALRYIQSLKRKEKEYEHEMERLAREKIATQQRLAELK
ACACGCCC: 0.321
ACACGCAG: 0.276
GCGTGGTA: 0.442
CACGCTAG: 0.286
ACATGTCT: 0.26
CCCCAAGA: 0.259
CCGCCCCA: 0.357
CGCCGCAC: 0.343
ACACGCCT: 0.311
GTGCGCGA: 0.252
ACACGTTA: 0.405
ATGAGCAC: 0.273
CCACGCAA: 0.27
CGTGTAAA: 0.319
CACATGGG: 0.468
CCACGTGC: 0.497
ATGCGGAC: 0.32
ACGCCTAT: 0.25

Block 3 — technique: protein binding microarray; molecule type: double-stranded DNA, one strand shown; sample: in vitro; concentration: not given; baseline: not given; direction: higher = stronger binding; quantity: E-score
Target: Histone acetyltransferase KAT6A, winged helix 2, GST fusion (KAT6A, Homo sapiens, UniProt Q92794, residues 85-181)
Notes: 8-mer, flanks averaged, mean of 2 arrays, mostly near background
Construct (chain): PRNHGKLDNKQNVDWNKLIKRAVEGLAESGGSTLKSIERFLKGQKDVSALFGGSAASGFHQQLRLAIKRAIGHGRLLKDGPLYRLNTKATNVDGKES
AAAATTTG: 0.00063
ACATTGTG: -0.143
TCCTCAAA: 0.00522
CCCGTTCA: -0.0454
CAACCGCA: 0.147
ACCATAAC: 0.022
CAAATATC: 0.129
GTACGGCA: 0.0733
ACAGACGT: -0.0793
ACAGCCGG: 0.0955
ATCGTATA: -0.0177
CTAGCGAC: 0.0728
CTAACCAA: 0.121
AAATTTAC: 0.0525
CACGTCCA: -0.216
TGAGTCCA: -0.00392
AAATAGTT: -0.127
CCACTGTA: -0.0862
AATGTAAG: -0.127
TAGGGCAA: -0.0992
CGGCTGTA: -0.0471
AGGAGGTA: -0.0709
CAGGCCAA: -0.126
ATCGCTTC: 0.0975

Block 4 — technique: protein-binding microarray; molecule type: double-stranded DNA, one strand shown; sample: in vitro; concentration: 2200 nM top; notes: 60-bp whole probe; together with: salmon DNA 0.4 mg/ml; baseline: random background probes; direction: higher = stronger binding; quantity: fitted relative affinity; shared flanks, not repeated: GCCTAGCAC … GTCTTGATTCGCTTGACGCTGCTG
Target: Interferon regulatory factor 7, full length, phosphomimetic (IRF7, Homo sapiens, UniProt Q92985, residues 1-503, S471D/S472D/S475D/S476D/S477D/S483D/S484D/S487D)
Target sequence (chain): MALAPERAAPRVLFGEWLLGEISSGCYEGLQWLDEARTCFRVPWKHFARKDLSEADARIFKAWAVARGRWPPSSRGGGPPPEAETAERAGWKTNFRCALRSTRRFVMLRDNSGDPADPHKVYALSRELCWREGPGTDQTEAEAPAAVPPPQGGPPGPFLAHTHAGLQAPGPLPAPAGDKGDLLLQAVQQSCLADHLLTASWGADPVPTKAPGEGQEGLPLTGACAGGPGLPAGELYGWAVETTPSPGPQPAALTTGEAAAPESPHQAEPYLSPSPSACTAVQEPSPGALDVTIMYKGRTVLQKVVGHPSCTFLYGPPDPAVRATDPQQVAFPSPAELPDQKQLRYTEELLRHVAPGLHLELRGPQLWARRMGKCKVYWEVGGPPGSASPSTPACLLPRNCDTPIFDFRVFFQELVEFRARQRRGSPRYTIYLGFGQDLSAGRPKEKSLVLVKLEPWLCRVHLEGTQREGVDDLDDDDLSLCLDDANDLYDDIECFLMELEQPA
TTGTGTTTGGGCATTTTTCTAGTGCTA: 0.538 z-score
GACGGTTTCCTTTCCCTGAAGTGCTAG: 4.39 z-score
TTAGATTTCAGTTCGGATTAGTGCTAG: 1.48 z-score
TTAGAAATGAGACTGGATTAGTGCTAG: -1.04 z-score
TGAGATATCAGTTTCGATTAGTGCTAG: 5.57 z-score
GACGGACTGGGAATGGGGACGTGCTAG: -0.868 z-score
TACAATTTGCTTTAGTCATTGTGCTAG: 0.761 z-score
TTAGATTCCAATTTCGATTAGTGCTAG: 3.29 z-score
TCATTTTGCCCTATTTAACTGTGCTAG: 2.8 z-score
GACGGTTTCGACTATGGGGACGTGCTA: 3.39 z-score
TTAGAACTGATTCTCGATTAGTGCTAG: -0.014 z-score
GACAATTTCGGGACTGGAGACGTGCTA: 1.44 z-score
TTACGTATCGACTTTCGGTTAGTGCTA: 7.14 z-score
TTAGGACTGGGGTATCGGTTAGTGCTA: -0.367 z-score
TCATTTACAGGTTCTCTTACTGTGCTA: 1.74 z-score
TTAGGTATCGGTTTCGCTTAGTGCTAG: 5.34 z-score
GACGGTATCGACACTTGGGACGTGCTA: -0.00493 z-score
GACGGACTGCTTTTCCTGAGGTGCTAG: 0.165 z-score
TCTCATTCCAATTCTTTTTATGTGCTA: 1.66 z-score
CAGCCTCTACCTCCTGGGCTCGTGCTA: -0.266 z-score
TCATATTAAATTTTCACACTGTGCTAG: 1.26 z-score
TTAGGTTGCGACTTTCGGTTAGTGCTA: 6.2 z-score
GGGATAAGGACAGACACCATGTGCTAG: -0.7 z-score
TAAGGTTTCGACTATCGGTTAGTGCTA: 3.1 z-score

Block 5 — technique: RNA Bind-n-Seq; molecule type: RNA; sample: in vitro; concentration: 365 nM; baseline: no-protein control; direction: higher = stronger binding; quantity: RBNS enrichment (R)
Target: RNA binding protein fox-1 homolog 2, RRM domain, GST-SBP tag (RBFOX2, Homo sapiens, UniProt O43251-10, residues 100-194)
Notes: natural RNA segment, single round, ends assumed
Shared flanks, not repeated: GGGAGUUCUACAGUCCGACGAUC … UGGAAUUCUCGGGUGCCAA
Target sequence (chain): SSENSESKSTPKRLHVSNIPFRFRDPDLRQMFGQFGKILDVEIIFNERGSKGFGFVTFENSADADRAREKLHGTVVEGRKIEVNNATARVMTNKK
UCUAAUGGUCCUUUAAAAAUGUCUGUAUUAAAAUUUAAGAAUACCACACUUUAAUAUUAAAUAUCAUAAGGUCUAGUAUCUUGAUAAUAAUGUAGAUGUUUUAAUAACAA: 0.376
GCGGCGUGCCAAUCUGCGGGUCCCCUGCGGCCCCUGCUGCCGCUGCGCUGUCCCGGCCGCAAGAGCGGGGCCGCCCCGCCGAGGUUUGUAGCAGCCGGGAUGUGACCCUC: 2.04
AGAGUCAAGCUAAAGCUACCACCUUGGGGUGAGCCCUACAGAAGGUUCAGACCCGGGCAGCUCAGCUACCUCCUUCUACAUGGAGGUGGCCCUGGUCCCACCUCUAAUCC: 0.23
UUGGUCCCUCUAAUGAUCCUCCAGCCUCAUCUAAUGCCCCCCAAAGACUGAUACAAGUAACCUCCCCUCUGCUUAGGUGUCACUUUCUCAGCAUAUCAAGUUUAGGCAGC: 0.673
AAUGUAUUCAGUCUUUUAUUCUUUAUAAUUGUGUGUAAAUGUUAACUAAACAGUGGAUUCCUCUCGUGUUACAGUUUUGAGUGAAUUAUUAAAGAAGUUAAAAUGCAAUA: 0.608
UUGCGUUAUUGGCCUAGAUUUUGCUGCAGAUUAAAUCCUUUGAGGAUUCUCUUCUCUUUUACCAUUUUUCUGCGUGCUCUCACUCUCUCUUUCUCUCUCUAGCUUUUUAA: 0.732
UGUGGUGGCCCACAUGGCUCUGCCCAGUGUCCUGUGCUUUGCCACAGUCCUCUGGGGUCAGUGUCUCGGGCAGUGGGAUGGAACUGUGUGAUUGCUCUUAGGUGAGUUCC: 0.505
GGGGCCUUGCUCGGCACCAGGACUAUUGGGCUGUGUUUAAACGGCCCAAAUCUUAAUUUUUCUCUUUUUUUUCUUUGGCUUUGGGAACGGCAUAAUUUUACACCAUUUUA: 0.381
GAGUUCCAGCUUUGACAGCCUGAUGACCUCCAUUUUCAUAUGAAUGAUGCCUGCACCCCCACACCUCUGACUCAUCCUAUGGGUGUUCCAAGGCACCCAAUGCUCCACCC: 0.826
UCCUGUAAGGUUUGAAUGAGACAGAUGUACUCUGAAGGCUGGUGGUAAAUGUGUUUGAUGACCAGACUCUUCAUACAGUCGGCUUGGGCCACUUUAAAGGACAAAAGCCA: 1.69
AUAGCACCUGACAGAAUACUUCUCCUCUUCCUCACCUUCGGGUGCCUCUAGACACUUGACUUACGAUCGUUAUUCCCCCAAUUCAUCAUAUUUUGUUUGUUAUCACCAGA: 1.25
UCUCUCACCUAAAUAGUUCCACUUUCUGCAUUAGGAGAAAACUGCUCCCCUCCCCAAGUAUUUUAGUCCAAGUUUCCUUUAGUUUGAGAACAUAGAUUGUAUCACCCAUA: 1.2

Repeated from above (block 3):
CAACCGCA: 0.147
CCACTGTA: -0.0862
CACGTCCA: -0.216
TAGGGCAA: -0.0992
CAGGCCAA: -0.126
ACAGACGT: -0.0793
ATCGCTTC: 0.0975
CGGCTGTA: -0.0471
CCCGTTCA: -0.0454
